Measured values pooled from the literature.
Compare with care: the assays were run in different laboratories.
Organism: Staphylococcus aureus

For `CCN(CC)CCCN1/C(=C/c2cc(C)[n+](C)c3ccccc23)Sc2ccccc21`, the MIC was 4 µg/mL (microbial growth, broth dilution; ATCC43300 MRSA).
The MIC of `C=CCNCc1cc(N(C)C)c2c(c1O)C(=O)C1=C(O)[C@]3(O)C(=O)C(C(N)=O)=C(O)[C@@H](N(C)C)[C@@H]3C[C@@H]1C2` is reported as 2 µg/mL (RN4250, Tet K efflux).
`O=[N+]([O-])c1ccc(CSc2nnc(C34CC5CC(CC(C5)C3)C4)n2-c2ccccc2)cc1` gave an MIC of 4 µg/mL (two-fold dilution; IFO 3060; 24 h, 36 °C).
For `CC(CCCOC(=O)CCC[N+](C)(C)C)C1CCC2C3C(OC(=O)CCC[N+](C)(C)C)CC4CC(OC(=O)CCC[N+](C)(C)C)CCC4(C)C3CC(OC(=O)CCC[N+](C)(C)C)C12C` (stereo not drawn), the MIC was 31.3 µg/mL (microbial growth, broth dilution; ATCC29213; 16 h).
`CN(C)c1cc(CNC2CCCC2)c(O)c2c1C[C@H]1C[C@H]3[C@H](N(C)C)C(O)=C(C(N)=O)C(=O)[C@@]3(O)C(O)=C1C2=O` has an MIC of 4 µg/mL (MRSA 5, Tet M, 50% human serum).
With `CNC(CC(C)C)C(=O)NC1C(=O)NC(CC(N)=O)C(=O)NC2C(=O)NC3C(=O)NC(C(=O)NC(C(=O)O)c4cc(O)cc(O)c4-c4cc3ccc4O)C(O)c3ccc(c(Cl)c3)Oc3cc2cc(c3OC2OC(CO)C(O)C(O)C2OC2CC(C)(NC(=O)CCCCCC[N+](C)(C)Cc3ccccc3)C(O)C(C)O2)Oc2ccc(cc2Cl)C1O` (stereo not drawn) the MIC was 256 µg/mL (agar dilution; MRSA clinical isolate MRSA4).
`CC[P+](CC)(CC)[Au-][S+](C[C@H]1O[C@H](O[C@H]2O[C@H](COC(C)=O)[C@@H](OC(C)=O)[C@H](OC(C)=O)[C@H]2OC(C)=O)[C@H](OC(C)=O)[C@@H](OC(C)=O)[C@@H]1OC(C)=O)[Au-][P+](CC)(CC)CC.[Cl-]` gave an MIC of 0.006 µM (broth microdilution; JE2 USA300).
For `CCc1nc(N)nc(N)c1C#CC(C)c1cc(F)cc(-c2cc(C)nc(C)c2)c1` (racemic), the MIC was 0.625 µg/mL (broth microdilution; ATCC 43300; 18 h, 37 °C).
The MIC of `CN(C)c1cc(CNC(=O)C(C)(C)C)c(O)c2c1C[C@H]1C[C@H]3[C@H](N(C)C)C(O)=C(C(N)=O)C(=O)[C@@]3(O)C(O)=C1C2=O` is reported as 16 µg/mL (MRSA 5, Tet M ribosome protection).
`CC(C)=CCc1cc(-c2coc3cc(O)c(CC=C(C)C)c(O)c3c2=O)ccc1O` gave an MIC of 128 µg/mL (ATCC 25923).
The MIC of `CO[C@H]1[C@H](O)[C@@H](N)[C@@H](O[C@H]2[C@H](O[C@@H]3O[C@H](CO)[C@@H](O[C@H]4O[C@@H](CN)[C@@H](O)[C@H](O)[C@H]4N)[C@H]3O)[C@@H](O)[C@H](N)C[C@@H]2N)O[C@@H]1CO` is reported as 32 µg/mL (broth microdilution; MRSA isolate AG 042).
With `C/C(=N\NC(N)=S)c1ccc2c(c1)sc1nc(=O)c(C#N)cn12` the MIC was less than 57 µg/mL (microbial growth, broth dilution).
The MIC of `CC[C@H](C)[C@@H]1NC(=O)[C@@H]([C@@H](C)O)NC(=O)CNC(=O)[C@H](CC(=O)O)NC(=O)CNC(=O)[C@H](CC(=O)O)NC(=O)CNC(=O)[C@H]2CCCCN2C(=O)[C@@H](NC(=O)[C@H](CC(=O)O)NC(=O)/C=C/CCCCCCCCCC(C)C)CNC(=O)[C@@H]2CCCN2C1=O` is reported as 8 µg/mL (MRSA USA300; together with: Ca2+ 1 mM).
The MIC of `CCCCCCCCCc1nc2ccc(Cl)cc2c(=O)n1CCN` is reported as 25 to 50 µM (broth microdilution; RN6390B).
For `CC(C)C[C@H](NC(=O)[C@H](CC(N)=O)NC(=O)[C@H](CCCNC(=N)N)NC(=O)[C@@H](CC(C)C)NC(=O)[C@H](Cc1ccc(-c2ccccc2)cc1)NC(=O)[C@H](CC(=O)O)NC(=O)[C@H](CCCCN)NC(=O)[C@@H](CC(C)C)NC(=O)[C@H](CCCNC(=N)N)NC(=O)[C@H](CCC(N)=O)NC(=O)[C@@H](NC(=O)[C@@H](CC(C)C)NC(=O)[C@H](CCCNC(=N)N)NC(=O)[C@H](CCCCN)NC(=O)[C@H](Cc1ccc(-c2ccccc2)cc1)NC(=O)CN)C(C)C)C(=O)N[C@H](C(N)=O)C(C)C`, the MIC was 4 µM (USA300 LAC; overnight, pepsin pretreated).

Some of these lines once more:
For `CC(CCCOC(=O)CCC[N+](C)(C)C)C1CCC2C3C(OC(=O)CCC[N+](C)(C)C)CC4CC(OC(=O)CCC[N+](C)(C)C)CCC4(C)C3CC(OC(=O)CCC[N+](C)(C)C)C12C` (stereo not drawn), the MIC was 31.3 µg/mL (microbial growth, broth dilution; ATCC29213; 16 h).
For `CCN(CC)CCCN1/C(=C/c2cc(C)[n+](C)c3ccccc23)Sc2ccccc21`, the MIC was 4 µg/mL (microbial growth, broth dilution; ATCC43300 MRSA).
